Published values of several laboratories.
Compare with care: the assays were run in different laboratories.

Compound = CNC(=O)c1cc(Oc2ccc(NC(=O)Nc3cc(C(C)(C)C)nn3-c3ccc4ncccc4c3)c(F)c2)ccn1; system = patients; setting = oral, dose not given, cycles 1 and 2, High Cmax subgroup; measurement = patients with grade 3 cardiac disorders; result = 6%
Compound = COc1cc(Nc2ncc3c(n2)-c2ccc(Cl)cc2C(c2c(F)cccc2OC)=NC3)ccc1C(=O)O; assay = measured: Nausea, all grades; system = cancer patients, phase 1/2; setting = oral, dose not given, added: pembrolizumab; measurement = patients with adverse event; result = 21%
Compound = C[C@@H](Nc1cc(F)cc(F)c1)c1cc(C(=O)N(C)C)cc2c(=O)cc(N3CCOCC3)oc12; assay = CTCAE v4, measured: confusional state; system = patients with advanced solid tumours; setting = oral, dose not given, phase I dose expansion; measurement = patients discontinuing for AE; result = 0%
Compound = Cc1cc(NC2CCN(C(=O)OC3CCN(C(=O)/C=C/CN(C)C)C3)CC2)n2ncc(C(C)C)c2n1 (stereo not shown); assay = Phase I dose escalation CTCAE v4.0, measured: small intestinal obstruction; system = patients with advanced solid tumours; setting = dose not given, Total dosing any grade; measurement = patients with adverse event; result = 6%
Compound = CNC(=O)c1ccc(-c2cnc3ncc(Cc4ccc5ncccc5c4)n3n2)cc1F; assay = measured: Asthenia; system = hepatocellular carcinoma patients; setting = oral, 600 mg twice daily, expansion cohort, grade 3-4; measurement = patients with adverse event; result = 0%
Compound = COc1cc2nccc(Oc3ccc(NC(=O)c4cc5c(n(-c6ccccc6)c4=O)CCCC5=O)nc3)c2cc1OC; assay = CTCAE; system = patients with relapsed/refractory AML; setting = oral, 10 mg once daily; measurement = patients, with TEAEs, drug-related grade ≥3; result = 14.3%
Compound = NC(=O)N1c2ccccc2C=Cc2ccccc21; system = male patients; setting = oral, dose not given, on-treatment adverse events; measurement = patients with Lymphadenopathy; result = 7%
Compound = CCOc1c([C@H](C)n2nc(C)c3c(N)ncnc32)cc(Cl)c(F)c1[C@@H]1CNC(=O)C1; assay = measured: QTcF change above 60 ms; system = previously treated B-cell malignancy; setting = oral, 15 mg once daily, overall population; scale = reference: baseline; measurement = patients; result = 0%
Compound = O=C(Nc1nc2cccc(-c3ccc(CN4CCS(=O)(=O)CC4)cc3)n2n1)C1CC1; system = rheumatoid arthritis patients; setting = oral, 100 mg twice daily, 4 weeks, TEAE regardless of relatedness; measurement = patients with Asthenia; result = 8.3%
Compound = Cc1cc(-c2nnc(N)nc2-c2ccc(F)cc2)cc(Cl)n1; assay = measured: Fatigue; system = other solid tumours, IO-naive; setting = oral, 100 mg once daily, all grades; measurement = patients with treatment-related AE; result = 47.4%

Excerpt of the above:
Compound = CNC(=O)c1cc(Oc2ccc(NC(=O)Nc3cc(C(C)(C)C)nn3-c3ccc4ncccc4c3)c(F)c2)ccn1; system = patients; setting = oral, dose not given, cycles 1 and 2, High Cmax subgroup; measurement = patients with grade 3 cardiac disorders; result = 6%
Compound = COc1cc2nccc(Oc3ccc(NC(=O)c4cc5c(n(-c6ccccc6)c4=O)CCCC5=O)nc3)c2cc1OC; assay = CTCAE; system = patients with relapsed/refractory AML; setting = oral, 10 mg once daily; measurement = patients, with TEAEs, drug-related grade ≥3; result = 14.3%
